Measurements gathered from unrelated publications.
A part holds a random share of what one study measured. Substitutions count along the parent as printed.

Set 1 — technique: universal PBM; molecule type: double-stranded DNA, one strand shown; medium: in vitro; concentration: 600 nM; reading: higher = stronger binding; endpoint: E-score
Target: Sal-like protein 4, full length isoform A (SALL4, Homo sapiens, UniProt Q9UJQ4, residues 1-1053)
Chain of UniProt Q9UJQ4 (whole entry, looked up): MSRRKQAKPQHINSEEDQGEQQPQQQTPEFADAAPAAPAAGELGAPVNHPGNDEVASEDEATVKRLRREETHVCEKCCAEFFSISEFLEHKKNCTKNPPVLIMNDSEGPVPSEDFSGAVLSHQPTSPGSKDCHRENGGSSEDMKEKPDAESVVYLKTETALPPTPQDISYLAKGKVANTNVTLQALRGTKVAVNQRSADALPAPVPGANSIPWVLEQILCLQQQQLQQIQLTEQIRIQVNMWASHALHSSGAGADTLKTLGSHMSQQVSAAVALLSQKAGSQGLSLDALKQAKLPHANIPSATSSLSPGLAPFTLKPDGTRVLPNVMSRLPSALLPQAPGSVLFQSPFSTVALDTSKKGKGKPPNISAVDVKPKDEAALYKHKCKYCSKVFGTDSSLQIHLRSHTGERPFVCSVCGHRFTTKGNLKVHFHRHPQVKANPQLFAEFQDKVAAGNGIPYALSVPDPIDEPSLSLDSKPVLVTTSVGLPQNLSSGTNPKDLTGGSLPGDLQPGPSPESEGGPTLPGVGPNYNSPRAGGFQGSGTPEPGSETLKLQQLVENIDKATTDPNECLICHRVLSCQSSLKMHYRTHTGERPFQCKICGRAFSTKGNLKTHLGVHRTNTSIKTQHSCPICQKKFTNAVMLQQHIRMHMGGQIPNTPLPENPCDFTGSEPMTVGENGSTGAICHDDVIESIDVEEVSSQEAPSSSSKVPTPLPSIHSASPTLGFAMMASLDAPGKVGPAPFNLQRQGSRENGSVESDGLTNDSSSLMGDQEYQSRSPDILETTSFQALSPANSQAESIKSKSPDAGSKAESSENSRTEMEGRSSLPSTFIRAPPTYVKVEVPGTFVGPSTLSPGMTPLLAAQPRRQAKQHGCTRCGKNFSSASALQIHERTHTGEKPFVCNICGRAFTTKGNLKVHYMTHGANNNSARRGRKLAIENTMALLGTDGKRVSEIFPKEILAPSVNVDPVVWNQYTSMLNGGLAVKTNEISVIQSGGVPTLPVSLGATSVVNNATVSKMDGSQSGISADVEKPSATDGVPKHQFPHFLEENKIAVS
Notes: 8-mer, flanks averaged, mean of replicates
Strand = ACGAATGG; value = 0.0484
Strand = AAACGTCG; value = -0.0423
Strand = CTTGTAAA; value = 0.182
Strand = ACTGAGCG; value = -0.25
Strand = CGTCTAAG; value = -0.137
Strand = AGTAGGAT; value = -0.0237
Strand = AGTGCAAT; value = 0.168
Strand = AGCCCTAT; value = -0.0679
Strand = ACTATTCG; value = 0.254
Strand = TAAGCGTA; value = 0.069
Strand = CAAGTTCA; value = -0.044
Strand = GCAACTAC; value = 0.0717
Strand = CCAACGAC; value = -0.165
Strand = GACCCAAA; value = -0.0253
Strand = AATGTACC; value = 0.166
Strand = GTCTTACA; value = 0.132
Strand = ACAGGCCC; value = -0.361
Strand = ACAAACGT; value = -0.00468
Strand = TAAGAATA; value = 0.259
Strand = ACCGGCCC; value = -0.441
Strand = AGTTTCCG; value = -0.125
Strand = TCCCTTCA; value = -0.0118
Strand = GCGATCCC; value = -0.257
Strand = CTTGCCAA; value = 0.0321
Strand = AAGGACTC; value = -0.0792

Set 2 — target: CREB3L2, bZIP domain (human); technique: DHFR protein complementation; medium: yeast; reference: wild-type JUN-FOS pair; reading: higher = stronger binding; endpoint: binding fitness
Notes: single substitutions, most at no-binding floor
Parent: JUN, bZIP domain (human); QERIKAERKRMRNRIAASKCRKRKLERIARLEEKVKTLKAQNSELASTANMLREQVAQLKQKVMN; partner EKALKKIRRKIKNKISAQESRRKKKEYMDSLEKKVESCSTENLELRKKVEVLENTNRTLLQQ
Change = T37S; value = -1.42 natural log
Change = A49M; value = -1.38 natural log
Change = T37R; value = -1.36 natural log
Change = S43D; value = -1.26 natural log
Change = I28C; value = -1.48 natural log
Change = L31N; value = -1.57 natural log
Change = A40E; value = -1.46 natural log
Change = R53F; value = -1.34 natural log
Change = A46N; value = -1.55 natural log
Change = L38C; value = -1.49 natural log
Change = S47C; value = -1.38 natural log
Change = I28N; value = -1.54 natural log
Change = A57W; value = -1.35 natural log
Change = A57V; value = -1.67 natural log
Change = T37L; value = -1.3 natural log
Change = E33D; value = -1.44 natural log
Change = Q41N; value = -1.28 natural log
Change = K36M; value = -1.17 natural log
Change = A29T; value = -1.35 natural log
Change = L52Y; value = -1.46 natural log
Change = K36D; value = -1.38 natural log
Change = E44N; value = -1.65 natural log
Change = I28W; value = -1.45 natural log
Change = E32V; value = -1.47 natural log
Change = Q55F; value = -1.42 natural log

Set 3 — target: CEP164, C-terminal peptide (human); technique: DHFR complementation, deep sequencing; medium: yeast; reference: wild type; reading: higher = weaker binding; endpoint: binding free energy change
Notes: single substitutions, model-inferred values
Parent: PDZK1, PDZ domain 2 (human); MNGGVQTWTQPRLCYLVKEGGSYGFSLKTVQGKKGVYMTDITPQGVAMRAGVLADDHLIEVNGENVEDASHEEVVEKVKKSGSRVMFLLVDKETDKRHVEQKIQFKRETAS; partner HNRVKVYRF
Change = L53F; value = 0.0722 kcal/mol
Change = G4M; value = 0.0482 kcal/mol
Change = G63L; value = 0.707 kcal/mol
Change = G3K; value = -0.159 kcal/mol
Change = T7W; value = -0.0112 kcal/mol
Change = A54V; value = 0.0841 kcal/mol
Change = G32N; value = 0.136 kcal/mol
Change = H71M; value = -0.391 kcal/mol
Change = R107W; value = -0.13 kcal/mol
Change = G4P; value = -0.0432 kcal/mol
Change = M48R; value = 0.0371 kcal/mol
Change = G21S; value = -0.012 kcal/mol
Change = Q10K; value = -0.0931 kcal/mol
Change = L53W; value = 0.119 kcal/mol
Change = V75I; value = 0.166 kcal/mol
Change = D91C; value = 0.0717 kcal/mol
Change = T7L; value = 0.0498 kcal/mol
Change = G24M; value = 1.3 kcal/mol
Change = K79W; value = 0.452 kcal/mol
Change = V52C; value = 0.0941 kcal/mol

Set 4 — cell line: yeast with cyclin F-Cln2 chimera; read-out: cell growth; mode: binder; technique: competitive growth deep sequencing; molecule type: peptide; concentration: concentration not given; notes: peptide tiling library; reading: direction not given; endpoint: growth enrichment score
Sequence = PKRAKRKLYTSEISSP; value = 1.48
Sequence = IPMIAKNLMCELDE; value = 1.02
Sequence = PKNAKRNLSSEFAN; value = 0.36
Sequence = RKLDLEGIGR; value = 3.63
Sequence = DWDTVERQEEEAPSWD; value = 0.771
Sequence = TLPYDLACTGGDFVLF; value = -0.271
Sequence = SNFFDVIKQLFSDEKN; value = 1.17
Sequence = TSSAQRRLEIPSGGAD; value = 1.91
Sequence = MNQELLSVGSKRRRTG; value = 1.34
Sequence = TQERKQIHCLSEDELS; value = 0.406
Sequence = IFNKPECGRVQRAIFQ; value = 1.69
Sequence = HPESPPRKRLKSKGSD; value = 1.46
Sequence = ASVLSKPIFCFVKD; value = 0.0848
Sequence = GTPKRCLDLSNLSSGE; value = 1.35

Set 5 — technique: protein binding microarray; molecule type: double-stranded DNA, one strand shown; medium: in vitro; concentration: not given; reference: not given; reading: higher = stronger binding; endpoint: E-score
Target: Histone acetyltransferase KAT6A, both winged helices, GST fusion (KAT6A, Homo sapiens, UniProt Q92794, residues 1-181)
Notes: 8-mer, flanks averaged, mean of 2 arrays, mostly near background
Target sequence (chain): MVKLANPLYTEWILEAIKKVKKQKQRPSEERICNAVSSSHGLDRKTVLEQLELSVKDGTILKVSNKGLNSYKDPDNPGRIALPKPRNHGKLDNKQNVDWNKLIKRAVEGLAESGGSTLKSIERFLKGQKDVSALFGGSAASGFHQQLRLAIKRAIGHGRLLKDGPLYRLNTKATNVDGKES
Strand = CGAACGAG; value = 0.0288
Strand = AACCCGCG; value = 0.298
Strand = AAATATAT; value = -0.0678
Strand = CGCAAACC; value = 0.171
Strand = CAGGTTGA; value = 0.00285
Strand = CAGAGCGC; value = 0.277
Strand = CTGAAGTA; value = -0.0725
Strand = CTAGCCCC; value = -0.168
Strand = GCTGAAGA; value = -0.0877
Strand = AAGTCCTG; value = -0.271
Strand = ACAATCTA; value = -0.0671
Strand = AGAGGATG; value = -0.282
Strand = AAGCAGAT; value = -0.216
Strand = CCATGTGC; value = 0.0713
Strand = GCGAGCAA; value = 0.00173
Strand = GGAGCAAA; value = -0.158
Strand = CATGTAGG; value = -0.0761
Strand = AGTGGAGG; value = -0.141
Strand = CAACACAC; value = -0.147
Strand = ACCCTGCG; value = -0.0773
Strand = ACGTTTGC; value = 0.0424
Strand = CTCAAATA; value = 0.0365
Strand = CAAAAAGA; value = -0.121
Strand = GTCAGAAC; value = 0.048
Strand = CTGCCGCA; value = 0.146

Set 6 — technique: RNA Bind-n-Seq; molecule type: RNA; medium: in vitro; concentration: 100 nM; reference: input RNA pool; reading: higher = stronger binding; endpoint: bound/input enrichment
Target: RING finger protein unkempt homolog, zinc fingers 1-6, SBP tag (UNK, Homo sapiens, UniProt Q9C0B0, residues 30-357)
Chain of UniProt Q9C0B0 (30-357, looked up): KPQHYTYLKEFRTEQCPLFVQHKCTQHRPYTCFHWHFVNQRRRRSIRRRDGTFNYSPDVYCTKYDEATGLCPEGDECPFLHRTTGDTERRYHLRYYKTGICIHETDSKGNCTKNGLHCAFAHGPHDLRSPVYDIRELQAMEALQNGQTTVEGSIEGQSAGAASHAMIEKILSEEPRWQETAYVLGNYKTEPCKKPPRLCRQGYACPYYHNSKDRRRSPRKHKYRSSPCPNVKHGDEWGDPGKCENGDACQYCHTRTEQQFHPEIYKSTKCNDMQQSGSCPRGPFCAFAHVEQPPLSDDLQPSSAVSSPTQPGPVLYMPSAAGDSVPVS
Notes: RNA with constant flanks, vertebrate orthologous sites, ends assumed
All sequences stand within: GGGAGUUCUACAGUCCGACGAUC … CAACAGAGGAUUGAGCAUCA
Strand = GACCUCCUGAACUUCUAACUUUCAAGCUGUGGCUGUUUUAGAUACUGGUUUUAUUUUCUUUACAAUUUUCCUGCCUUUCUUCCCCUGUUCCCAAGGUUUGACUCAUGGAUCUUACUCUUC; value = 2.81 ratio
Strand = GAAGUAAAAUAUUGGAUGCAGUAUAUAAAUGAUCCAAGGCAGUGACUUCAGCUUUAGAUAUUAGUUUUAAGGUUAUUUUCAUUUAUUUAAACUUCUAGAUUGGAUUAUUUGUUAUUACCC; value = 1.24 ratio
Strand = UGAGGGAGAGAUUUCUGUGCUUUCUCAUAUUUAAUUUGCUGUUUUUAAGAUAUUCCAACCUAGAGUUUUUGAUGGAACUGAUAUAUUGACAGUUCUCACCGAAGUCCUUUUAUAAAGAAU; value = 0.936 ratio
Strand = CUGCAGGAAUGGCCCCGUCGCGCCUGUUUAUUCUGUAAACUACAGCCUGUAAAUAACAUUUAGCAUUCCUAUUGUAACAGAAUUAAUUUUUAUGAAAUAAAUUAUAUUUCCUAGUCUAAU; value = 0.421 ratio
Strand = UAUUCAUUUGAUUAAAAUUAUUUAGAUAAGGAACUAUUACUGUUUAUCUUUGCUUUCAGACAACUUAUCCUAUUUUUUAUCCAUUUUGCAAAAUAGCACUUGUGUGUGGUUUCUUAACAC; value = 0.744 ratio
Strand = GGUUAAUGUGUUAUUUAUUGAAUAUUGUUUGUGCUAAGCAUUGUGUUAGAUUUAAAAAAUUAGUGGAUUGACUCCACUUUGUUGUGUUGUUUUCAUUGUUGAAAAUAAAUAUAACUUUGU; value = 1.03 ratio
Strand = CCUAUAAUAAUGAGAACCGACAGGAAUUUUUUUAUUUCUCAUUUUCCCCUGAGGUAUAUUCAGUCCUUUUCCCCAGGCAGAUCAUUCUGAGUGCGUGUGUGUGUGUGUGUGCACAUGUUA; value = 0.611 ratio
Strand = GAAGGCAGAGCUCUUACAGUCUUAGCUGGGAUAGCGGCAGAUCUGAACUGUAAGAGUUGUUAGUGCAGGGUUUUUUUUUUGGGGGGGGGGUACAAGGCAUUUCUGAAAUUUUAUAAACUU; value = 2.08 ratio
Strand = CAUGUCCUUAUUACUGUGAUAUUAAAACAGACACAGUACUCAUUUCCCCCCCAGUGAUUUUUGUAAUUGCCUAGGAAGAUCUUUCUCUUACCUGUUAUUUAUCAAUUUUUCCCAGUAUUU; value = 1.05 ratio
Strand = AUAAUCACUCUAAUUGUAAUCUGAAAAAAGUGUAACAUUGUGUAGCCUUUUUGUAUAAAAUAGACAAAUAGAAAUGGUCCAAAUAGUUUCCUUUUUAAUAUGCUUAAAAUAAGCAGGUGG; value = 1.45 ratio
Strand = GAUACUGAAUAGUAUUAAACAUUUUCGUCUUCCUUUACCUUUUAUCCCCUACCUAAUAUCUAGUCUACUUUUUUAAAUUUCAAACUUCACUGCUCUUUGAAUUGAUAAUUCCAAUUUUCA; value = 7.26 ratio

Excerpt of the above (set 3):
Change = H71M; value = -0.391 kcal/mol
Change = R107W; value = -0.13 kcal/mol
Change = G4P; value = -0.0432 kcal/mol
Change = M48R; value = 0.0371 kcal/mol
Change = G21S; value = -0.012 kcal/mol
Change = Q10K; value = -0.0931 kcal/mol
Change = L53W; value = 0.119 kcal/mol
Change = V75I; value = 0.166 kcal/mol
Change = D91C; value = 0.0717 kcal/mol
Change = T7L; value = 0.0498 kcal/mol
Change = G24M; value = 1.3 kcal/mol
Change = K79W; value = 0.452 kcal/mol
Change = V52C; value = 0.0941 kcal/mol
